Measured values pooled from the literature.
“And” joins repeats or separate records; there may be more than shown. ± gives the spread as reported.
SLC6A3: Sodium-dependent dopamine transporter (SLC6A3, Homo sapiens, UniProt Q01959)
UniProt Q01959, sequence (whole entry, looked up): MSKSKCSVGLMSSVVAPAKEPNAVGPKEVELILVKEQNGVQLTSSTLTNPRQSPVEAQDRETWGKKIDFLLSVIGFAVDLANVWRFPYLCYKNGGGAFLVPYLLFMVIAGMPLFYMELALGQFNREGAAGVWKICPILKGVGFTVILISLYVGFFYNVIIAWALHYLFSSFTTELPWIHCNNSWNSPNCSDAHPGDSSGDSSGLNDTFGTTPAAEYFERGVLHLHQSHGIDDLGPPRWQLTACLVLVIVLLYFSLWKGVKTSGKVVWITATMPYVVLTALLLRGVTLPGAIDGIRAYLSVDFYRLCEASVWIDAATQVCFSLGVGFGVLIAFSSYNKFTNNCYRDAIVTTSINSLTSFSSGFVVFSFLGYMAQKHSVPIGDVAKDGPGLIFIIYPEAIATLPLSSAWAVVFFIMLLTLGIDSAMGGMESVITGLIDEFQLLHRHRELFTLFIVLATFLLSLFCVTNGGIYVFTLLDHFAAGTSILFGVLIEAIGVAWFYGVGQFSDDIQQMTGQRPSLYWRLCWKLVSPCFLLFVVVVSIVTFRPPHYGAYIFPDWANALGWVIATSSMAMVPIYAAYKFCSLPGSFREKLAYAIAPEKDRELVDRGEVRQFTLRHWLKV
GRPR: Gastrin-releasing peptide receptor (GRPR, Homo sapiens, UniProt P30550)
UniProt P30550, sequence (whole entry, looked up): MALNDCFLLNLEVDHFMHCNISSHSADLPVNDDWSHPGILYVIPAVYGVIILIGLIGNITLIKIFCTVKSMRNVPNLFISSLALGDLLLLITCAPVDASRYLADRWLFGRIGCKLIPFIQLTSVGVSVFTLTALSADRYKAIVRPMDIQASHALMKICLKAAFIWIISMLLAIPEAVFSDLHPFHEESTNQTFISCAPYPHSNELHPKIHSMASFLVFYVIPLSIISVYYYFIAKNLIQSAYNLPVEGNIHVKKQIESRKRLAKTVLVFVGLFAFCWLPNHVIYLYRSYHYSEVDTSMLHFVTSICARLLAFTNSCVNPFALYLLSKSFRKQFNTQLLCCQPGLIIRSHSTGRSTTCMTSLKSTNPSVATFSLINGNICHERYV
SIRT3: NAD-dependent protein deacetylase sirtuin-3, mitochondrial (SIRT3, Homo sapiens, UniProt Q9NTG7)
UniProt Q13936, sequence (whole entry, looked up): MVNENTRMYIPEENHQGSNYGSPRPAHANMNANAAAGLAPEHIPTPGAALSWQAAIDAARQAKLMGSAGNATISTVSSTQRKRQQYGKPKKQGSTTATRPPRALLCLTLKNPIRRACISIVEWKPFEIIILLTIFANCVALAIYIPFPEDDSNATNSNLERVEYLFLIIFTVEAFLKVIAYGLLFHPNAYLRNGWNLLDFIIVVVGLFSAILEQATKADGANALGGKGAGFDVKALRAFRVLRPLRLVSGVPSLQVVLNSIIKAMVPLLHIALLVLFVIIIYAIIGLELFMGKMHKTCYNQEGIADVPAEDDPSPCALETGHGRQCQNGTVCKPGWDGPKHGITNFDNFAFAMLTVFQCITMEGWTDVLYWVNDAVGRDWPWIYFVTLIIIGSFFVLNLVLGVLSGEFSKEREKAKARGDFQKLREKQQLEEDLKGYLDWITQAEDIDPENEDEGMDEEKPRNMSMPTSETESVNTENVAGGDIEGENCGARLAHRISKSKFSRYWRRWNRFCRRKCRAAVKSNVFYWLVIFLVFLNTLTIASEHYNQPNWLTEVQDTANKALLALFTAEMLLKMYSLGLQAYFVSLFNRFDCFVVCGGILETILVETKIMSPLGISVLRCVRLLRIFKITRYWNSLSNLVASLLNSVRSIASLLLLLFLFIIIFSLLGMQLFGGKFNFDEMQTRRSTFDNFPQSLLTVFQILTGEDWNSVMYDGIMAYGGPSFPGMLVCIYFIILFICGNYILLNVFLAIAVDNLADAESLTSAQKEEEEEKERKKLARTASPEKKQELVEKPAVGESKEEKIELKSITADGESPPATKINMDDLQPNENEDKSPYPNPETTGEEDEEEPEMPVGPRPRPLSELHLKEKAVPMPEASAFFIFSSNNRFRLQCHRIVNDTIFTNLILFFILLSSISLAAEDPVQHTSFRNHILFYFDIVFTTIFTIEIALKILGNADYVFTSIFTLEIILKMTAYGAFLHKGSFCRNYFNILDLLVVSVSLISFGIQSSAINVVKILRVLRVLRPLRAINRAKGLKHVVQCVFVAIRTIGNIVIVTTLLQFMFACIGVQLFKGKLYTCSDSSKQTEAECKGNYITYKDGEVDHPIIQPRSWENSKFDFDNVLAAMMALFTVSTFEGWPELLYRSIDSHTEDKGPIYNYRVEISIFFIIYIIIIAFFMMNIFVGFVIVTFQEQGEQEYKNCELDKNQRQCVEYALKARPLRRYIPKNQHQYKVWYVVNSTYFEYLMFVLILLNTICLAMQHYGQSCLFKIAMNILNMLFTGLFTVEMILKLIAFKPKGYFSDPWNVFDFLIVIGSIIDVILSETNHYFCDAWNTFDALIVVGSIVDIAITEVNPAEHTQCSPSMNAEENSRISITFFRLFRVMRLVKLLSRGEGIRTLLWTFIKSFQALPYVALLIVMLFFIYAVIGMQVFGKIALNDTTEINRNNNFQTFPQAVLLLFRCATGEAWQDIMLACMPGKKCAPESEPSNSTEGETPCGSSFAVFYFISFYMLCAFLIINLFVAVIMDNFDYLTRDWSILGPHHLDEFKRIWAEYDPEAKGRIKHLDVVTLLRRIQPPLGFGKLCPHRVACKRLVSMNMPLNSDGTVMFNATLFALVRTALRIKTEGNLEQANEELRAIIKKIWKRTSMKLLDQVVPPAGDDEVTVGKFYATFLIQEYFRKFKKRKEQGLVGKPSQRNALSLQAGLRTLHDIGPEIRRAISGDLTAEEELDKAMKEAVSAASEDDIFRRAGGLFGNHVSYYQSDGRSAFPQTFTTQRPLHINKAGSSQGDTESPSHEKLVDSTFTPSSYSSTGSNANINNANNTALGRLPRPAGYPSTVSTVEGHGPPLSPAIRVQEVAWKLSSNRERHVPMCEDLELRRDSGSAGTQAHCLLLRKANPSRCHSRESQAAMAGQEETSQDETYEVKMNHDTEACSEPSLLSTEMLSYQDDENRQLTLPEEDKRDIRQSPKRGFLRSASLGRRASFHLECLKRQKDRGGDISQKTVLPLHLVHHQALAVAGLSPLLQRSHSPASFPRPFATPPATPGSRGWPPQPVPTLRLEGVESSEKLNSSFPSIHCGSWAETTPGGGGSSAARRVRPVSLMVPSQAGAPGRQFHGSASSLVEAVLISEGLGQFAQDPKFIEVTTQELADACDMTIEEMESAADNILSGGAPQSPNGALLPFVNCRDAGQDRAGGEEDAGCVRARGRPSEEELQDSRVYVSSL
UniProt P28074, sequence (whole entry, looked up): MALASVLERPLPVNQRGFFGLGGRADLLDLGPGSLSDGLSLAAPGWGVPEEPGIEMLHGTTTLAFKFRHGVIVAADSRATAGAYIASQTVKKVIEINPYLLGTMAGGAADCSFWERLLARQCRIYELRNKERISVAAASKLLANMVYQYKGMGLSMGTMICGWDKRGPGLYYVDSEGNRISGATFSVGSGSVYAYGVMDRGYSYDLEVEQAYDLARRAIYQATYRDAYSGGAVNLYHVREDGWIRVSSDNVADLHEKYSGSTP
UniProt Q9NTG7, sequence (whole entry, looked up): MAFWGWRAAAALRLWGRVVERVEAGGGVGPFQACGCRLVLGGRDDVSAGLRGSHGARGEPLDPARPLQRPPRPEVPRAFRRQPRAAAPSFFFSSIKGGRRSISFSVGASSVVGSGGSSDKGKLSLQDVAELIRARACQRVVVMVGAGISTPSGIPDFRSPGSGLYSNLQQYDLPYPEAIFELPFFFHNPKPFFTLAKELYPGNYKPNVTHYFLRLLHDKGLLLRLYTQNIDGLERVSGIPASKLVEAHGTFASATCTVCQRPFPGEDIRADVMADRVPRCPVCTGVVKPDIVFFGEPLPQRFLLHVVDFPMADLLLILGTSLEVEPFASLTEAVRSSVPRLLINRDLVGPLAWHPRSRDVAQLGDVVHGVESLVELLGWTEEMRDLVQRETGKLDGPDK
UniProt P20618, sequence (whole entry, looked up): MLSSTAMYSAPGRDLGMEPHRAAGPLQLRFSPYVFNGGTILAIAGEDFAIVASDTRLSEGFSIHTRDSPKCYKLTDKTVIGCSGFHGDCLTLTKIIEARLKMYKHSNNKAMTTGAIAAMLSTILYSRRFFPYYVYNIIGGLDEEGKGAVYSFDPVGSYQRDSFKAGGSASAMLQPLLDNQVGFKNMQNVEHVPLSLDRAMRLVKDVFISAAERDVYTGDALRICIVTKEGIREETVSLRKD
UniProt Q09470, sequence (whole entry, looked up): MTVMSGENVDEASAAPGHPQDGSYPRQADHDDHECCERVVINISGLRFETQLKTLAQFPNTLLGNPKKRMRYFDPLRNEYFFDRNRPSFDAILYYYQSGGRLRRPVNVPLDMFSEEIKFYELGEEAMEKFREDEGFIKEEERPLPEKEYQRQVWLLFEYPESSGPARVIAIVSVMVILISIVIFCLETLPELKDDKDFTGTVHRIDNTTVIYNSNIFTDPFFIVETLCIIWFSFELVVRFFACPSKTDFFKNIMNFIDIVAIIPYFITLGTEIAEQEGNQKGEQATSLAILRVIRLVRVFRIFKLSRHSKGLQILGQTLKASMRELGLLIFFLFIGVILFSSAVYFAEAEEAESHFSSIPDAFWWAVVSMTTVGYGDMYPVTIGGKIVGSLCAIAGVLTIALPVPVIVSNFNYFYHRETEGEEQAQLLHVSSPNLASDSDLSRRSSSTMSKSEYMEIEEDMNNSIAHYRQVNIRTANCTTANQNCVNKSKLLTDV
UniProt Q14011, sequence (whole entry, looked up): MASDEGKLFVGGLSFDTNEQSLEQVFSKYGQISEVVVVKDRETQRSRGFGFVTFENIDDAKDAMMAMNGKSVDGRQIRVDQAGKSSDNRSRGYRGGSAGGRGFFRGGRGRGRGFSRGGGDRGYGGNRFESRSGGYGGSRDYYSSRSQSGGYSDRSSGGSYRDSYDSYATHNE
UniProt Q13526, sequence (whole entry, looked up): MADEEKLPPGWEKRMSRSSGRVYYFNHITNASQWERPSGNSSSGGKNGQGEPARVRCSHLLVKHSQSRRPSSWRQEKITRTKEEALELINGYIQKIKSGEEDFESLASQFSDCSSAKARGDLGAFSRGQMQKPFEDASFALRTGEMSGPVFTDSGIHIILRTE

Compound	target	assay	system	conditions	IC50
C[C@@H](OC(=O)c1cccc(S(=O)(=O)Nc2ccc3c(c2)OCO3)c1)C(=O)c1c[nH]c2ccccc12	KCNA2/KCNA1 (Homo sapiens, UniProt P16389+Q09470)	potassium current, inhibitor, automated patch clamp	CHO-K1, concatemer expressing		4.07 µM
[2H]c1c(NS(C)(=O)=O)c([2H])c2c(C(=O)c3ccc(OCCCN(CCCC)CCCC)cc3)c(CCCC)oc2c1[2H]	Voltage-dependent L-type calcium channel subunit alpha-1C, cardiac isoform (CACNA1C, Homo sapiens, UniProt Q13936)	peak calcium current, blocker, whole-cell patch clamp	HEK293FT transfected		1.15 µM
N#Cc1ccc(-c2c[nH]c(CNC(=O)Nc3ncc(Sc4ccccn4)s3)n2)cc1	Enoyl-(Acyl-carrier-protein) reductase (Streptococcus pneumoniae, UniProt Q9FBC5)	enzyme activity, inhibitor			0.085 µM
Cc1[nH]nc2c1N=C(c1ccccc1Cl)c1cnc(N3CCOCC3)cc1N2	CSF1R (Homo sapiens, UniProt P07333)	enzyme activity, inhibitor			0.007 µM
O=C(NCCN1CCC(Cc2ccccc2)CC1)c1ccc2cc(Br)ccc2c1	SLC6A3	transporter uptake, inhibitor, radiometric			0.41 to 1.73 µM
CN(C)CCN(Cc1ccncc1)Cc1c(Cl)cccc1Cl	SLC6A3	transporter uptake, inhibitor, radiometric			> 20 µM
O=C(Nc1ccc(C(=O)Nc2ccc(C(=O)Nc3ccc(S(=O)(=O)O)c4cc(S(=O)(=O)O)cc(S(=O)(=O)O)c34)cc2)cc1)Nc1ccc(C(=O)Nc2ccc(C(=O)Nc3ccc(S(=O)(=O)O)c4cc(S(=O)(=O)O)cc(S(=O)(=O)O)c34)cc2)cc1	Chymotrypsinogen A (Bos taurus, UniProt P00766)	enzyme activity, inhibitor, absorbance		pH 7.4	> 180 µM
CC(C)C[C@H]1CN[C@H](C(N)=O)CSSC[C@@H](N)C(=O)N[C@@H](CCC(N)=O)C(=O)N[C@@H](Cc2c[nH]c3ccccc23)C(=O)N[C@@H](C)C(=O)N[C@@H](C(C)C)C(=O)N[C@H](C)C(=O)N[C@@H](Cc2c[nH]cn2)C(=O)N1	GRPR	inositol phosphate generation, antagonist	HuTu80	with: GRP	> 10 µM
Cc1cccc(C)c1NC(=O)CC(C)NCc1ccccc1 (stereo not drawn)	SCN4A (Homo sapiens, UniProt P35499, F1586C)	tonic block of sodium current, whole-cell patch clamp	HEK293	0.1 Hz stimulation	137 ± 9 µM
COc1ccccc1OC1=C(Oc2ccccc2OC)C(=O)c2ccccc2C1=O	Bromodomain-containing protein 4, BD1 (BRD4, Homo sapiens, UniProt O60885)	BD1 acetylated histone peptide binding, inhibitor, AlphaScreen			1.29 µM
O=C[C@H](C[C@H]1CCNC1=O)NC(=O)[C@H](Cc1ccccc1)NC(=O)OCc1ccccc1	Genome polyprotein, 3C protease (rhinovirus B14, UniProt P03303)	3C protease activity, inhibitor, FRET			0.09 ± 0.01 µM
O=C(O)c1ccccc1-c1c2ccc(=O)cc-2oc2cc(O)ccc12	UBA1 (Homo sapiens, UniProt P22314)	enzyme activity, inhibitor			> 100 µM
COc1ccc(NC(=O)CSc2nc(-c3ccc(Cl)cc3)cc(C(F)(F)F)c2C#N)cc1	TAAR1 (Homo sapiens, UniProt Q96RJ0)				> 10 µM
Cc1cc(N2CC[C@](C#N)(C3(C)CC3)C2=O)cc(C(=O)NCc2cc(F)cc(-c3cnn(C)c3)c2)n1	Proline--tRNA ligase (Plasmodium falciparum, UniProt Q8I5R7)	enzyme activity, inhibitor, absorbance			1.77 µM
NCCCC[C@@H](NC(=O)CCCCCNC(=O)c1ccc(-c2ccnc(N)n2)s1)C(=O)NCCCCCC(=O)N[C@H](CCCN=C(N)N)C(=O)N[C@H](CCCN=C(N)N)C(=O)N[C@H](CCCN=C(N)N)C(=O)N[C@H](CCCN=C(N)N)C(=O)N[C@H](CCCN=C(N)N)C(=O)N[C@H](CCCN=C(N)N)C(N)=O	cGMP-dependent protein kinase 1, isoform alpha (PRKG1, Bos taurus, UniProt P00516)	inhibitor, fluorescence intensity displacement		with: ARC-1059 probe and cGMP 40 µM	0.017 µM
O=C1OC2(c3ccccc31)c1cc([N+](=O)[O-])c(O)c(Br)c1Oc1c2cc([N+](=O)[O-])c(O)c1Br	Genome polyprotein, NS2B-NS3 interaction (dengue virus type 2, UniProt P29990)	NS2B-NS3 interaction, inhibitor, split luciferase complementation			13 µM
NS(=O)(=O)c1ccc(NC(=O)NN[C@@H]2OC[C@H](O)[C@H](O)[C@H]2O)cc1	CA9 (Homo sapiens, UniProt Q16790)	enzyme activity, inhibitor			0.092 µM
N=C(NCCCSCC1OC(n2cnc3c(N)ncnc32)C(O)C1O)NCCCC(N)C(N)=O (stereo not drawn)	SETD7 (Homo sapiens, UniProt Q8WTS6)	enzyme activity, inhibitor, fluorescence			> 100 µM
CN(Cc1nc2ccccc2s1)C(=O)c1cccc(S(=O)(=O)N2CCc3ccccc3C2)c1	CACNA1C (Homo sapiens, UniProt Q13936)	calcium signal, fluorescence			3.85 µM
O=C(OC(C(F)(F)F)C(F)(F)F)N1CCC(CCn2ccc3ccncc32)CC1	Faah (Rattus norvegicus, UniProt P97612)	enzyme activity, inhibitor			4.1 µM
CCCCCCCCCCCCCC(=S)NCCCC[C@H](NC(=O)[C@@H]1CCCN1C(=O)[C@@H](N)CC(C)C)C(=O)N[C@@H](CCCCN)C(=O)N[C@H](C(=O)O)[C@@H](C)O	SIRT3				8 µM

Compound	target	assay	system	conditions	IC50
Cc1ccc(CNC(=O)C(CCc2ccccc2)NC(=O)C(NC(=O)Cc2cccc(Oc3ccccc3)c2)C(C)O)cc1 (stereo not drawn)	Proteasome component C5/PSMB5 (Homo sapiens, UniProt P20618+P28074)	inhibitor			0.47 µM and ~0.5 µM
CC(C)=CCN=C(N)NCCC[C@@H](NC(=O)CCCc1ccc(O)cc1)C(=O)N[C@@H](Cc1ccccc1)C(O)CC(=O)N[C@@H](Cc1ccc(O)cc1)C(=O)O (stereo in doubt)	ADAM17 (Homo sapiens, UniProt P78536)	enzyme activity, inhibitor			> 100 µM
CCCC[C@H](NC(=O)[C@H](Cc1ccccc1)NC(=O)[C@H](Cc1c[nH]cn1)NC(=O)CCNC(=O)[C@@H](NC(=O)[C@H](C)NC(=O)[C@H](Cc1c[nH]c2ccccc12)NC(=O)[C@H](CC(N)=O)NC(=O)[C@H](N)Cc1ccc(O)cc1)C(C)C)C(N)=O	GRPR	ligand displacement in cells, radioligand			0.001 µM
O=C(O)C(=O)NC(CSCc1ccccc1)C(=O)O (stereo not drawn)	KDM4E (Homo sapiens, UniProt B2RXH2)	enzyme activity, inhibitor			300 µM
N[C@@H](CCC(=O)N[C@@H](CS[Se]Cc1ccc(-c2cccc(C(O)c3ccc(Cl)c(Cl)c3)c2)cc1)C(=O)NCC(=O)O)C(=O)O (stereo partly drawn)	PTPN7 (Homo sapiens, UniProt P35236)	enzyme activity, inhibitor		with: pNPP, GSH 1 mM	2.5 ± 0.1 µM
CCNC(=O)[C@H](CC(C)C)NC(=O)[C@H](Cc1c[nH]cn1)NC(=O)CNC(=O)[C@@H](NC(=O)[C@H](C)NC(=O)[C@H](Cc1c[nH]c2ccccc12)NC(=O)[C@H](CCC(N)=O)NC(=O)[C@@H](Cc1ccccc1)NC(=O)[C@H](CC(N)=O)NC(=O)[C@H](CC(=O)O)NC(=O)[C@H](CCCNC(=N)N)NC(=O)CNC(=O)CNC(=O)CN)C(C)C	GRPR	ligand displacement, radioligand			0.0653 µM
O=C(OC(C(F)(F)F)C(F)(F)F)N1CCC(CCn2cc3ccccc3n2)CC1	MGLL (Homo sapiens, UniProt Q99685)	enzyme activity, inhibitor			0.17 µM
COC(=O)C[C@H](NC(=O)[C@H](C)NC(=O)[C@@H](NC(=O)OCc1ccccc1)C(C)C)C(=O)CF	Caspase-4 (Casp4, Mus musculus, UniProt P70343)	enzyme activity, inhibitor, fluorescence			0.004 µM
O=C(CCCCCCN(Cc1ccc([N+](=O)[O-])cc1)Cc1ccc([N+](=O)[O-])cc1)NO	HDAC2 (Homo sapiens, UniProt Q92769)	enzyme activity, inhibitor, fluorescence			4 µM
CC[C@H](C)[C@H](NC(=O)[C@H](Cc1ccccc1)NC(=O)[C@H](CC(=O)O)NC(=O)[C@H](CCCNC(=N)N)NC(=O)[C@H](C)NC(=O)[C@H](C)NC(=O)[C@H](CC(C)C)NC(=O)[C@H](CC(N)=O)NC(=O)[C@H](CC(=O)O)NC(=O)[C@H](CC(C)C)NC(=O)[C@@H](NC(=O)[C@@H](NC(=O)[C@H](CC(N)=O)NC(=O)[C@H](CCSC)NC(=O)[C@H](CCC(=O)O)NC(=O)[C@H](CC(=O)O)NC(=O)[C@H](CO)NC(=O)[C@H](Cc1ccccc1)NC(=O)[C@H](CO)NC(=O)CCNC(=O)[C@H](CC(=O)O)NC(=O)[C@H](C)NC(=O)[C@@H](N)Cc1c[nH]cn1)[C@@H](C)O)[C@@H](C)CC)C(=O)N[C@@H](CC(N)=O)C(=O)N[C@@H](Cc1c[nH]c2ccccc12)C(=O)N[C@@H](CC(C)C)C(=O)N[C@H](C(=O)N[C@@H](CCC(N)=O)C(=O)N[C@H](C(=O)N[C@@H](CCCCN)C(=O)N[C@H](C(=O)N[C@H](C(=O)N[C@@H](CC(=O)O)C(N)=O)[C@@H](C)O)[C@@H](C)CC)[C@@H](C)O)[C@@H](C)CC	GLP2R (Homo sapiens, UniProt O95838)				0.038 µM
COC(=O)[C@@H](CS)N1C(=O)c2ccc(N(C)C)cc2C1=O	VIM-2 (Escherichia coli, UniProt Q5U7L7)	enzyme activity, inhibitor		pH 7	0.18 µM
O=C(/C=C(\O)C(F)(F)C(F)(F)F)c1cccnc1	Formate-nitrite transporter (FNT, Plasmodium malariae, UniProt A0A1C3KYI2)				0.21 ± 0.02 µM
C[C@H](OP(=O)(O)O)[C@H]1NC(=O)[C@H](CCCNC(=N)N)NC(=O)[C@H](CCCNC(=N)N)NC(=O)[C@@H](CCCNC(=N)N)NC(=O)[C@H](CCCNC(=N)N)NC(=O)[C@H](Cc2ccc3ccccc3c2)NC(=O)[C@@H]2CCCCN2C1=O	PIN1 (Homo sapiens, UniProt Q13526)	fluorescence anisotropy competition		with: FITC-labelled probe	5.49 ± 0.16 µM
CCCCCCCC(=O)OCCN1CCN(c2cc(Nc3ncc(C(=O)Nc4c(C)cccc4Cl)s3)nc(C)n2)CC1	SRC (Homo sapiens, UniProt P12931)	enzyme activity, inhibitor			0.0075 µM
Cc1nc(NC(=O)c2ccccc2)sc1-c1csc(Nc2ccc(O)c(C(=O)O)c2)n1	CIRBP (Homo sapiens, UniProt Q14011)	RNA binding, inhibitor, fluorescence anisotropy		with: fluorescein-labelled RNA motif	6.4 µM
Cc1cc(NC2CCN(C)CC2)ccc1-c1cc2c(N3CCC[C@H](C(=O)NCc4ccc(OC(F)(F)F)cc4)C3)ncnc2[nH]1	ROS1 (Homo sapiens, UniProt P08922)	enzyme activity, inhibitor, mobility shift			0.00788 µM
CNC(=O)C1CCN(c2ccccc2NC(=O)c2ccc(-c3cc(O)ccc3C)c(OC)c2)CC1	EPHA5 (Homo sapiens, UniProt P54756)	target engagement in cells, BRET			0.138 µM
COc1cc(C(C2C(=O)CC(C)(C)CC2=O)C2C(=O)CC(C)(C)CC2=O)ccc1O	PCO4 (Arabidopsis thaliana, UniProt Q9SJI9)	enzyme activity, inhibitor, RapidFire Q-TOF MS		with: RAP2 peptide substrate	264.4 ± 1.07 µM
Cc1cc(C)nc(SCC(=O)Nc2ncc(Cc3cccc(OCc4cn(Cc5ccc(C#N)cc5)nn4)c3)s2)n1	SIRT3	enzyme activity, inhibitor, fluorescence			> 100 µM
CC(C)[C@H](NC(=O)[C@H](C)NC(=O)[C@H](Cc1c[nH]c2ccccc12)NC(=O)[C@H](Cc1c[nH]cn1)NC(=O)[C@H](N)Cc1ccccc1)C(=O)N[C@H](C)C(=O)N[C@@H](Cc1c[nH]cn1)C(=O)N1CCC[C@@H]1CN[C@@H](Cc1ccccc1)C(N)=O	GRPR	inositol phosphate generation, antagonist	HuTu80	with: GRP	0.025 ± 0.001 µM
Cc1cc2c(NC(=O)N[C@@H]3CC(C)(C)Oc4cc(C(F)(F)F)ccc43)cccc2cn1	TRPM8 (Homo sapiens, UniProt Q7Z2W7)	cell-based			30 µM
